Experimental data of several laboratories.
Each line is one published result; not all experiments were run side by side. Several values in a cell are separate wells, animals, samples, runs or records. ± marks the error that the study gave.

O=C(c1cccnc1-c1ccncc1)N1CCC(O)(Cc2ccccc2)CC1 has a Cmax/dose of 6.88 ng/mL/mg (healthy Japanese adults, plasma; oral, 300 mg twice daily, day 21).
N=C(N)NCCNC(=O)C1(Nc2ccccc2)CCN(Cc2ccccc2)CC1: “apparent volume of distribution” 0.3 L (female Sprague-Dawley rats, plasma; oral, 50 mg/kg).
The SHBG level of N#Cc1ccc2c(c1)[C@H]1CCCN(C(=O)c3ccc4[nH]cnc4c3)[C@H]1C2 is reported as 37 nmol/L (human males; 160 mg, day 15).
CC(=O)O[C@H]1C(=O)[C@@]2(C)[C@H]([C@H](OC(=O)c3ccccc3)[C@]3(O)C[C@H](OC(=O)[C@H](O)[C@@H](NC(=O)c4ccccc4)c4ccccc4)C(C)=C1C3(C)C)[C@]1(OC(C)=O)CO[C@@H]1C[C@@H]2O: “adverse event incidence” 4% (refers to: Rash; patients with advanced solid tumours; intravenous, dose not given, grade 3 and 4, possibly related to drug).
For CC(C)C[C@H](NC(=O)[C@@H](Cc1c[nH]c2ccccc12)NC(=O)[C@H](Cc1ccc(O)cc1)NC(=O)[C@H](CO)NC(=O)[C@H](Cc1c[nH]c2ccccc12)NC(=O)[C@H](Cc1c[nH]cn1)NC(=O)[C@@H]1CCC(=O)N1)C(=O)N[C@@H](CCCNC(=N)N)C(=O)N1CCC[C@H]1C(=O)NCC(N)=O, “patients, drug-related TEAEs” read 19.7% (Chinese CPP children, overall; intramuscular, 22.5 mg, 12 months, day 1, month 6).
For CCCC(CCC)C(=O)Oc1cccc(C(O)CCN)c1.O=CO (centres unmarked), “ERG, scotopic, rod b-wave” read 52.3 µV and 55.8 µV and 62.2 µV and 49.3 µV and 72.7 µV and 80.5 µV (Abca4-/-Rdh8-/- mice, photic damage; oral, 20 mg/kg, 7 days, flash intensity 0.005).
Under “pre-dose plasma concentration”, N#Cc1ccc2c(c1)[C@H]1CCCN(C(=O)c3ccc4[nH]cnc4c3)[C@H]1C2 is recorded as 1210 nmol/L (human, plasma; 80 mg once daily, day 2).
C[Si](C)(C)O[Si](C)(C)O[Si](C)(C)C: “whole-body biotransformation rate constant” 0.077 day⁻¹ and 0.064 day⁻¹ and 0.086 day⁻¹ (IVIVE from S9; rainbow trout (Oncorhynchus mykiss)).
With CNc1ccc(-c2nc3ccc(O)cc3s2)cc1 [carbon-11 labelled] the SUV was 0.716 ± 0.316 (ex vivo biodistribution; B6SJL mouse, normal, feces; intravenous, 30 min).
For O=C(N[C@H](Cc1c[nH]c2ccccc12)C(=O)Nc1ccncc1)c1ccc(N2CCN(c3ccc(F)cc3F)CC2)cc1F, the concentration was 1030 nM (Swiss Webster mouse, female, muscle; oral, 50 mg/kg, 2 h, 20% HPβCD vehicle).
For CN1CC(=O)N2[C@H](c3ccc4c(c3)OCO4)c3[nH]c4ccccc4c3C[C@@H]2C1=O, the accuracy was 98.5% (human plasma; 400 ng/mL, freeze-thaw at -20 °C).
For COc1cccc(OC)c1-c1cc(C(=O)NC2(C(=O)O)C3CC4CC(C3)CC2C4)nn1-c1ccc(C(=O)N(C)CCCN(C)CCCN(C)C(=O)CN2CCN(CC(=O)[O-])CCN(CC(=O)[O-])CCN(CC(=O)[O-])CC2)cc1C(C)C.[177Lu+3] (centres unmarked), the tumour-to-blood ratio was 1.48 (mouse, HT-29 xenograft; 4 h post injection, biodistribution; reference: tumour over blood uptake).
O=C1NCCc2nc(OCc3cccc(F)c3)ccc21 — result for “Irwin test score”: 0 (refers to: loss of Grasping; Sprague-Dawley rat male; oral, 100 mg/kg, 30 min; direction not given).
With CCn1cc(C(=O)N2CCOCC2)c(=O)c2cc(NC3Cc4ccccc4C3)cnc21 the half-life was 3.83 h (human, fasted, plasma; oral, 600 mg single dose, tablet, arithmetic mean).
Cc1nc2cccc(OCC(C)(C)C(=O)NC(C)C)c2c(N)c1C(=O)O gave a PCE/NCE ratio of 0.79 (male Swiss albino CD-1 mouse, bone marrow; oral, 1000 mg/kg, 24 h).
Cn1cc([C@H]2C[C@H]3CSC(N)=N[C@@]3(c3ccc(F)cc3F)CO2)cn1 gave a CSF concentration of 1210 nM (male 129/SVE mouse, CSF; subcutaneous, 50 mg/kg, 3 h).
For CO[C@H]1C[C@@H]2CC[C@@H](C)[C@@](O)(O2)C(=O)C(=O)N2CCCC[C@H]2C(=O)O[C@H]([C@H](C)C[C@@H]2CC[C@@H](OC(=O)NCCOCCOCCOCCOCCOCCOCCOCCOCCC(=O)N3CCc4cc(Cn5nc(-c6ccc7oc(N)nc7c6)c6c(N)ncnc65)ccc4C3)[C@H](OC)C2)C[C@@H](O)[C@H](C)/C=C(\C)[C@@H](O)[C@@H](OC)C(=O)[C@H](C)C[C@H](C)/C=C/C=C/C=C/1C, the Cmax was 505 ng/mL (human patients, plasma; intravenous, 10 mg, cycle 1 day 15, weekly dosing, 1 h infusion, arithmetic mean).
Cc1cc(-c2nccc3c2ccn3CC(=O)Nc2ccc(-c3cnccn3)cn2)ccn1: “subjects with any IMP-related TEAE” 22.2% (human; MAD part, 15 mg once daily).
Under “patients with adverse event”, CNC(=O)c1ccc(-c2cnc3ncc(Cc4ccc5ncccc5c4)n3n2)cc1F is recorded as 11% (refers to: Pyrexia, all grades; cancer patients; oral, 600 mg twice daily, expansion cohort, any causality).
Under “urinary phosphate excretion change”, Cc1ccc([C@@H]2O[C@H](CO)[C@@H](O)[C@H](O)[C@H]2O)cc1Cc1ccc(-c2ccc(F)cc2)s1 is recorded as 1.25 mg (refers to: inorganic phosphorus; Japanese type 2 diabetes patients; 25 mg, day 4, 24 h urine collection; reference: baseline).
c1ccc2cc3ccccc3cc2c1 — result for “literature range factor”: 4 (polyethylene-water partitioning; PAH compilation; reference: maximum over minimum K).
For C=CC(=O)Nc1cccc(-n2nc3c(=O)[nH]nc(N)c3c2-c2oc3ccc(C)cc3c2C)c1, the remaining compound was 20.2% (BALB/c nude mouse, whole blood; 1 µM, 5 h, 37 °C).
Under “subjects with proteinuria TEAE”, O=C(O)CCC(=O)O.[2H]C([2H])([2H])Oc1cc(C)c2[nH]ccc2c1CN1CC[C@@H](C2CC2)C[C@H]1c1ccc(C(=O)O)cc1 is recorded as 0% (multiple ascending dose; healthy Chinese subjects; 200 mg once daily).
The Ktrans of O=C(OC(C(F)(F)F)C(F)(F)F)N1CCN(Cc2cccc(Oc3ccccc3)c2)CC1 is reported as 0.0049 min⁻¹ (PET blocking study; rhesus monkey, brain Pons; 0.03 mg/kg, compound pretreatment, with: [18F]T-401 tracer).
O=C(Nc1nc2cccc(-c3ccc(CN4CCS(=O)(=O)CC4)cc3)n2n1)C1CC1 — result for “patients with TEAE”: 0% (refers to: animal bite; rheumatoid arthritis patients; oral, 100 mg twice daily, 4 weeks).
COc1ncc(-c2nc3c(n2C(C)C)[C@H](c2ccc(Cl)cc2)N(c2cc(Cl)cn(C)c2=O)C3=O)c(OC)n1 gave an AUC(0-last) of 330 ng·h/mL (LC-MS/MS; human, plasma; oral, 7.5 mg, cycle 1 day 14, low-dose arm).
COc1cc([C@H]2OC[C@H]3[C@@H]2CO[C@@H]3c2ccc(O[C@@H]3O[C@H](CO)[C@@H](O)[C@H](O)[C@H]3O)c(OC)c2)ccc1O[C@@H]1O[C@H](CO)[C@@H](O)[C@H](O)[C@H]1O has an accuracy of 106% (post-procedure stability; rat plasma; 8 ng/mL, 3 h, room temperature).
For CC(C)[C@@H](CS(=O)(=O)C(C)C)N1C(=O)[C@@](C)(CC(=O)O)C[C@H](c2cccc(Cl)c2)[C@H]1c1ccc(Cl)cc1, “spinal cord distribution advantage” read 0.5 (FVB mouse, Abcg2 knockout, spinal cord; intravenous, 20 mg/kg, unit not given; reference: knockout Kp over wild-type Kp).
With C=CC(=O)Nc1cc(Nc2nccc(-c3cn(C)c4ccccc34)n2)c(OC)cc1N(C)CCN(C)C the recovery was 95.5% (storage stability; human dried blood spots; 5 h, -80 °C, high QC level).
OC[C@H]1O[C@@H](c2ccc(Cl)c(Cc3ccc(O[C@H]4CCOC4)cc3)c2)[C@H](O)[C@@H](O)[C@@H]1O — result for “change in Bicarbonate”: -0.9 mEq/L (Japanese type 1 diabetes patients, blood; 2.5 mg, day 28; reference: baseline).
For COc1cc(C(=O)NC2CCN(C)CC2)c(F)cc1Nc1ncc(C(F)(F)F)c(Oc2cccc3c2C(=O)N(C)C3)n1, “renal clearance (0-24 h)” read 10.8 mL/min (human patients, urine and plasma; oral, 300 mg single dose, geometric mean).
Under “incidence of Vomiting”, NC1(C(=O)N[C@@H](CCO)c2ccc(Cl)cc2)CCN(c2nc[nH]c3nccc2-3)CC1 is recorded as 0% (metastatic CRPC patients; 320 mg b.i.d., grade 3 to 4, treatment-related, with: enzalutamide 160 mg daily).
COc1ccc2c(=O)n(C)c(-c3ccccc3)nc2c1 has a tissue/plasma ratio of 0.95 (Sprague-Dawley rat, male, lung; oral, 30 mg/kg, 0.25 h; reference: lung over plasma).
CCc1cc(C(=O)NC)c2nccc(N3CCc4c(cc(Cn5ccnc5)cc4-c4cn(C)nc4C(F)(F)F)C3=O)c2c1: “reticulocyte count change” -17.4% (Sprague Dawley rats; oral, 100 mg/kg once daily, 7 days; reference: vehicle).
For CC(C)(C(=O)N1CCOc2c(C#N)cncc2C1)C(F)F, “subjects with keratitis TEAE” read 0% (human, both sexes; oral, 10 mg single dose).
For Cc1nc(-c2ccc(OCC(C)C)c(C#N)c2)sc1C(=O)O, the body weight was 40.1 g and 37 g and 36.4 g and 33.7 g and 31.6 g and 32.1 g (KM mouse, chronic hyperuricaemia model; dose not given, day 17).
With Cn1cc(-c2ccc(S(=O)(=O)[C@@H]3C[C@@H](C(=O)NC4(C#N)CC4)N(C(=O)C4(C(F)(F)F)CC4)C3)c(C(F)(F)F)c2)cn1 the t_half was 539 min (noncompartmental analysis; human, plasma; oral, 100 mg, day 1, with food, geometric mean).
Under “systemic vascular resistance change”, CNCCOC12CC3(C)CC(C)(CC(Cn4ncc(-c5ccc(N6CCc7cccc(C(=O)Nc8nc9ccccc9s8)c7C6)nc5C(=O)O)c4C)(C3)C1)C2 is recorded as 9% (anaesthetised male beagle dogs; intravenous bolus, 0.03 mg/kg, 30 min; reference: baseline).
For C[C@H]1Oc2cc(cnc2N)-c2c(nn(C)c2C#N)CN(C)C(=O)c2ccc(F)cc21, “free plasma concentration” read 57.8 nM (Balb/c nude mouse female, plasma; 5 mg/kg single dose, 12 h).
With C=CCn1c(=O)c2cnc(Nc3ccc(N4CCN(C)CC4)cc3)nc2n1-c1cccc(C(C)(C)O)n1 the Tmax was 2 h (human; oral, 150 mg twice daily, cycle 1 day 17, with: durvalumab 1500 mg IV; median).
COc1cc2c3c(n(CCCN4CCOCC4)c(=O)c2cc1OC)-c1cc2c(cc1C3=O)OCO2: “volume of distribution” 178 L/m² (Fischer 344 rats, female; intravenous bolus, 12 mg/m^2).
O=C(c1nc2n(n1)[C@H](c1ccccc1)C[C@@H]2F)C1CC1 has a renal clearance of 0.198 mL/min (human, fed; 75 mg single dose).
NC(=O)c1cc(Oc2ccc(NC(=O)Nc3ccc(Cl)c(C(F)(F)F)c3)c(F)c2)cc[n+]1[O-] has an accuracy of 109% (long-term stability; mouse plasma; 25 ng/mL, 6 months, -80 °C).
CC(C(=O)NCC(=O)NCC(CNC(=O)CNC(=O)C(C)N1CCN(CC(=O)[O-])CCN(CC(=O)[O-])CCN(CC(=O)[O-])CC1)(CNC(=O)CNC(=O)C(C)N1CCN(CC(=O)[O-])CCN(CC(=O)[O-])CCN(CC(=O)[O-])CC1)CNC(=O)CNC(=O)C(C)N1CCN(CC(=O)[O-])CCN(CC(=O)[O-])CCN(CC(=O)[O-])CC1)N1CCN(CC(=O)[O-])CCN(CC(=O)[O-])CCN(CC(=O)[O-])CC1.[Gd+3].[Gd+3].[Gd+3].[Gd+3] (centres unmarked): “Gd concentration ratio” 100 (cynomolgus monkey; day 5; reference: kidney cortex over skin).

Some of these lines once more:
Cc1cc(-c2nccc3c2ccn3CC(=O)Nc2ccc(-c3cnccn3)cn2)ccn1: “subjects with any IMP-related TEAE” 22.2% (human; MAD part, 15 mg once daily).
N=C(N)NCCNC(=O)C1(Nc2ccccc2)CCN(Cc2ccccc2)CC1: “apparent volume of distribution” 0.3 L (female Sprague-Dawley rats, plasma; oral, 50 mg/kg).
OC[C@H]1O[C@@H](c2ccc(Cl)c(Cc3ccc(O[C@H]4CCOC4)cc3)c2)[C@H](O)[C@@H](O)[C@@H]1O — result for “change in Bicarbonate”: -0.9 mEq/L (Japanese type 1 diabetes patients, blood; 2.5 mg, day 28; reference: baseline).
With CNc1ccc(-c2nc3ccc(O)cc3s2)cc1 [carbon-11 labelled] the SUV was 0.716 ± 0.316 (ex vivo biodistribution; B6SJL mouse, normal, feces; intravenous, 30 min).
CC(C(=O)NCC(=O)NCC(CNC(=O)CNC(=O)C(C)N1CCN(CC(=O)[O-])CCN(CC(=O)[O-])CCN(CC(=O)[O-])CC1)(CNC(=O)CNC(=O)C(C)N1CCN(CC(=O)[O-])CCN(CC(=O)[O-])CCN(CC(=O)[O-])CC1)CNC(=O)CNC(=O)C(C)N1CCN(CC(=O)[O-])CCN(CC(=O)[O-])CCN(CC(=O)[O-])CC1)N1CCN(CC(=O)[O-])CCN(CC(=O)[O-])CCN(CC(=O)[O-])CC1.[Gd+3].[Gd+3].[Gd+3].[Gd+3] (centres unmarked): “Gd concentration ratio” 100 (cynomolgus monkey; day 5; reference: kidney cortex over skin).
COc1cc2c3c(n(CCCN4CCOCC4)c(=O)c2cc1OC)-c1cc2c(cc1C3=O)OCO2: “volume of distribution” 178 L/m² (Fischer 344 rats, female; intravenous bolus, 12 mg/m^2).
